Assay results from different studies.
Every numbered part comes from another study and shows a few of its results, in no order.

Sample 1
Target: Protein C-ets-1 (ETS1, Homo sapiens, UniProt P14921, residues 1-441, full length assumed)
Method: protein-binding microarray
Molecule type: double-stranded DNA, one strand shown
Medium: in vitro
Concentration: not given
Setting: k-mer, scored over probes, only values ≥0.25
Direction: higher = stronger binding
Construct (chain): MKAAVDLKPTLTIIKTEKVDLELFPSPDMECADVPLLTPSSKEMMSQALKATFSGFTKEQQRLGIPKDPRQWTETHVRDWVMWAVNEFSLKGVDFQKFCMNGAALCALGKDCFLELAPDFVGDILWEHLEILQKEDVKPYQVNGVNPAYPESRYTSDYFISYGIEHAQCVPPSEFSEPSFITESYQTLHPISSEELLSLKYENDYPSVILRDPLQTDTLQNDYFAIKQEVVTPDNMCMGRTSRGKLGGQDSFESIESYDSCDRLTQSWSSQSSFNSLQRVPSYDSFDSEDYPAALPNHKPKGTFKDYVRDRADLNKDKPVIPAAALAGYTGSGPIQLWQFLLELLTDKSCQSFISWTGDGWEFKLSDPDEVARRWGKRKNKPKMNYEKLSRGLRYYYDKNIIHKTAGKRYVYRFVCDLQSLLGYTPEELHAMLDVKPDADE
Strand	E-score
GTCCGGAC	0.325
AGGACCGG	0.294
CATCCTAC	0.301
CGGAATCA	0.253
ATTGATCC	0.274
CAGGAAAG	0.336
ACCCTTCC	0.369
ATCCTGCA	0.28
CGGGGAAG	0.259
CAGGAACC	0.326
ACGGATAC	0.387

Sample 2
Target: Histone acetyltransferase KAT6A, both winged helices, GST fusion (KAT6A, Homo sapiens, UniProt Q92794, residues 1-181)
Method: protein binding microarray
Molecule type: double-stranded DNA, one strand shown
Medium: in vitro
Concentration: not given
Setting: 8-mer, flanks averaged, mean of 2 arrays, mostly near background
Relative to: not given
Direction: higher = stronger binding
Residues (chain): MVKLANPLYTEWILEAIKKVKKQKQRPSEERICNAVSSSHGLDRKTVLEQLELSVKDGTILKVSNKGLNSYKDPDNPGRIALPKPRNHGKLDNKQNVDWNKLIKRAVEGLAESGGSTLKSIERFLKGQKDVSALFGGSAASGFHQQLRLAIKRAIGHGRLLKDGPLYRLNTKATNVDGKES
Strand	E-score
ATTTAGGC	-0.0898
ACCAATGC	-0.0123
ACTCAGTG	-0.153
AGCAGGAA	-0.142
GACCCATC	-0.042
AAAACCAC	0.0053
CTACCCGC	0.247
ACCCCTAC	-0.253
ATTACTCA	-0.113
AAGCGCTC	0.348
AGAGAAAT	0.0516
GGGCCATA	0.0598

Sample 3
Target: Interferon regulatory factor 7, full length, phosphomimetic (IRF7, Homo sapiens, UniProt Q92985, residues 1-503, S471D/S472D/S475D/S476D/S477D/S483D/S484D/S487D)
Method: protein-binding microarray
Molecule type: double-stranded DNA, one strand shown
Medium: in vitro
Concentration: 2200 nM top
Setting: 60-bp whole probe
Added: salmon DNA 0.4 mg/ml
Relative to: random background probes
Direction: higher = stronger binding
Shared flanks, not repeated: GCCTAGCAC … GTCTTGATTCGCTTGACGCTGCTG
Target sequence (chain): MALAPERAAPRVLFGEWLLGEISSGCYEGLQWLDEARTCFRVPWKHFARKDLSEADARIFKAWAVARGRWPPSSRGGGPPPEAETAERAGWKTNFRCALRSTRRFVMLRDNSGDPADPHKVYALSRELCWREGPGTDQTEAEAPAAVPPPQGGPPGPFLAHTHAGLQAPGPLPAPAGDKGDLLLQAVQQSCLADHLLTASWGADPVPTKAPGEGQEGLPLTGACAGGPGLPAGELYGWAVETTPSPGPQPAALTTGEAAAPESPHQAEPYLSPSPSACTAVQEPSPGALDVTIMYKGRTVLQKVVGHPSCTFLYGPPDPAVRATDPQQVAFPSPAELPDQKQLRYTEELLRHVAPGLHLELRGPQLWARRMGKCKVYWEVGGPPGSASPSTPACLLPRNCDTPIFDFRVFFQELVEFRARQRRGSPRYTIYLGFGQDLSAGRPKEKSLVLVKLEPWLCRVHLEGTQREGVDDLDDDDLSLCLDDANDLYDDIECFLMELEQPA
Strand	fitted relative affinity [z-score]
TTAGATATCGACTTTCGGTTAGTGCTA	6.22
GACGGTCTCGGACTGGGGAGGTGCTAG	-0.486
TCAAGTTTATACCTTAGACTGTGCTAG	0.0153
CTTCCTCTTTCACTGGTCCTGTGCTAG	3.3
TCAATTATTGTCTTCCCACTGTGCTAG	1.46
TTTTTGGATGCTGGAAAAATGTGCTAG	0.671
TCATGTGTCAACTTTCTCACTGTGCTA	1.36

Further values, each from its own experiment
Substance	target	assay	system	conditions	how to read	measurement	value
PhoQ, residues 284 288 289 292 302 303 NLMGRA	PhoP, residues 12 14 15 18 19 VQALL (Escherichia coli, UniProt P23836)	Sort-seq, measured: YFP reporter	E. coli	PhoQ-PhoP variant library, added: 10 µM Mg2+	relative to: high Mg2+ state, higher = stronger signaling	fold induction	11
